Assay results pooled from the literature.
Each numbered part is a random draw from the data of one study; scales do not carry over between parts. Changes are numbered by the printed parent chain.

Series 1 — target: CCNA2, cyclin fold, Cln2 fusion (human); method: yeast growth competition, sequencing; matrix: yeast; setting: strong parent motif; reference: not given; reading: higher = stronger binding; endpoint: normalised enrichment score
Parent: PKN2 docking peptide (human); VSAVQKLDFSDTM; partner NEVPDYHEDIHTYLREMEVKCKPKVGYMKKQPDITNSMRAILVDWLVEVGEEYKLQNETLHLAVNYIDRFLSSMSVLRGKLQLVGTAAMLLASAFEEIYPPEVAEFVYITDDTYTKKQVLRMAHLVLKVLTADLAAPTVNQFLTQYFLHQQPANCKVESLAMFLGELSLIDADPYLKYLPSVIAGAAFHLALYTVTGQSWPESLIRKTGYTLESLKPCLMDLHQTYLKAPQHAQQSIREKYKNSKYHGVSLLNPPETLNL
Change = L7M; result = -0.56
Change = D8L; result = 1.54
Change = V4L; result = 0.572
Change = V1P; result = 1.87
Change = D11T; result = 2.15
Change = F9A; result = 0.00988
Change = V4P; result = 0.76
Change = A3N; result = -0.276
Change = D11G; result = 2.67
Change = F9R; result = 0.195
Change = A3F; result = 1.06
Change = T12H; result = 2.22
Change = S2R; result = 3.58
Change = D8I; result = 1.95
Change = K6L; result = -0.165
Change = D8F; result = 1.06
Change = V1G; result = 1.67
Change = T12C; result = 2.32
Change = A3M; result = 0.219
Change = M13D; result = 2.15
Change = D11H; result = 2.21
Change = F9P; result = 0.161
Change = V4C; result = 2.52
Change = D11S; result = 2.3
Change = K6G; result = 0.241

Series 2 — method: RNA Bind-n-Seq; molecule type: RNA; matrix: in vitro; concentration: not given; reference: input RNA pool; reading: higher = stronger binding; endpoint: bound/input enrichment
Target: RING finger protein unkempt homolog, zinc fingers 1-6, GST-SBP tag (UNK, Homo sapiens, UniProt Q9C0B0, residues 30-357)
Setting: RNA with constant flanks, human and mouse sites, ends assumed
Target sequence (chain): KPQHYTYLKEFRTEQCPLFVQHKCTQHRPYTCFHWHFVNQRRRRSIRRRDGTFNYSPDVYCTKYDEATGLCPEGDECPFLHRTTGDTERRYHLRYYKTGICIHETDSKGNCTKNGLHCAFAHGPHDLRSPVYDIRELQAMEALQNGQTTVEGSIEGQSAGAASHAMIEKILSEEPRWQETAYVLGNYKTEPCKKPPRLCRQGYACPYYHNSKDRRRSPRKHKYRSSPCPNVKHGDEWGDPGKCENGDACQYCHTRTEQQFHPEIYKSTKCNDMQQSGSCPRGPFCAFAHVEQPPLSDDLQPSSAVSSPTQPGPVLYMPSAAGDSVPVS
Strand = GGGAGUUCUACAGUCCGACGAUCGAGGAAACAGACUACACUCCCGUUUGGUGCAUGCGCCAGGCAGGCCGUUACUUACCAGAGUUUAGGGAAACCCGGGCUGCCCAGGACUUUUUCAGCACGUGUCGCUCUCCUGAGGCCUGCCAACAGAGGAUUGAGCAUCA; result = 0.0892 ratio
Strand = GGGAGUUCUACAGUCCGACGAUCAGCAAAAAGAACAAUAUAUUUGCUCAGUUCAGGAAGAAUGAUCGAGACAAACAGAAGUUGAUAGAGACAGUCGUGAAACAGCUGAGAAGUUUGGUGAAUGGUAUGUCCCAGCACAUGUAGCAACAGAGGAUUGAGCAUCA; result = 0.319 ratio
Strand = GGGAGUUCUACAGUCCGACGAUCAAGCUGUAGGCUUUCUUCAGCCUUGCUCUUCCCAGCUCUGGAGAGUCCCUCCCUGACCUGGUGGUUAUAAUACAGCAGGCGGCCUUGGUUAAUGUUUACCUUUUCAUUGUGUUUUUGAAACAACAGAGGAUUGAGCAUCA; result = 0.0841 ratio
Strand = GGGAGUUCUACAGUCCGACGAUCAUGUCCUUUCCUGUGGAUAGUGUUGACAUAGGAUUCAGGAAUCAGGUUGAUGACAUCCGUAGCUUUUUGGAUUCCAGACAUCUUGACCACUACACAGUAUACAACUUGUCACCCAAGUCUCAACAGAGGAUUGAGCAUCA; result = 0.192 ratio
Strand = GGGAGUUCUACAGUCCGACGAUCGGGAACCAGGUUCUGUGAGGCAUUCUACCUCACCAGCAAGCUCAGAAUACUCUUGGAAGUCAGUUGAGAAAUACAAAAAAUACGCUCACUCUGGAUCACGUGAUUUCAGUAGACAUGAGCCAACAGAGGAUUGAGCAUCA; result = 0.225 ratio
Strand = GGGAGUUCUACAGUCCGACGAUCGCAAAGCAAAUUUAUGAAGAAUUCAUUCAAACGGAGGCUCCUAAAGAGGUGAAUAUUGACCACUUCACUAAGGACAUCACAAUGAAGAACCUGGUGGAACCUUCCCUGAGCAGCUUUGACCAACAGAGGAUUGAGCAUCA; result = 0.191 ratio
Strand = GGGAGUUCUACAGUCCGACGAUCGAGUAGCCUAAGUCUGGCUGUUCCUCCACCAAGAUUUCAUGACUCCAGCAGUCCGUUGCUAACCAGUGGGCCCUCAGUUGCUGAGCUCCCGUGGGCUGUAAAGUCUGAAGAUAAAGCCAACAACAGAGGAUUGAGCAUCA; result = 0.212 ratio
Strand = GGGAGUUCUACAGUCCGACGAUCUUGAAACAGUCAACUCGGAAAUUAACUAUAAGACUUGUUCUAUUUAUAAGUAUUUAUUUCUAAUGCCUCCACAUAGCCCUGUAAUAUUCAGAUGGAACCCCCAACCACCUCCACCCUGUUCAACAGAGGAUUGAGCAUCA; result = 0.869 ratio

Series 3 — method: DHFR PCA, deep sequencing; matrix: yeast; added: (+)-ABA 4.8 µM; reference: wild-type fitted maximum; reading: higher = stronger binding; endpoint: relative binding score
Target: ABI1, truncated, D143A, DHFR fusion (Arabidopsis thaliana)
Setting: methotrexate growth selection, single substitutions
Parent: PYL1, truncated, DHFR fusion (Arabidopsis thaliana); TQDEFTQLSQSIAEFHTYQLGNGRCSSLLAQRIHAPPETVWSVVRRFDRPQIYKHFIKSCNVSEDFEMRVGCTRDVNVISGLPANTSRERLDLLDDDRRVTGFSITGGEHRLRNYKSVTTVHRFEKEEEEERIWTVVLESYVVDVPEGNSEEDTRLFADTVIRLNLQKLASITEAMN; partner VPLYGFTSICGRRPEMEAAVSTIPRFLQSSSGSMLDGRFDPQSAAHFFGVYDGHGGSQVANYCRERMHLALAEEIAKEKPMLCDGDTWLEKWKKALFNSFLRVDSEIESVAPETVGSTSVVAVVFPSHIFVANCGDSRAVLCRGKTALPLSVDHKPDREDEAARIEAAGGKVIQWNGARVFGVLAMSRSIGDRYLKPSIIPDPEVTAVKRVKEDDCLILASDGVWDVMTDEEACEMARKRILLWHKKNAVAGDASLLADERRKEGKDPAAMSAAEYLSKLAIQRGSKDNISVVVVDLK
Change = R123F; result = 21.2%
Change = T135W; result = -5.99%
Change = L164I; result = 60%
Change = G102V; result = 0.867%
Change = E4Q; result = 61.5%
Change = Y53E; result = 11%
Change = S104K; result = 6.57%
Change = V145Y; result = -9.47%
Change = E38G; result = 38.7%
Change = E127P; result = 86%
Change = F47A; result = -2.13%
Change = R45F; result = -1.14%
Change = N61H; result = 77.2%
Change = F66V; result = 47.8%
Change = V143F; result = 2.22%
Change = S11C; result = 72%
Change = L164W; result = 39.8%
Change = E174V; result = 24.5%
Change = K126F; result = 68.5%
Change = V43T; result = 20.1%
Change = A158I; result = 109%

Series 4 — method: RNA Bind-n-Seq; molecule type: RNA; matrix: in vitro; concentration: 365 nM; reference: no-protein control; reading: higher = stronger binding; endpoint: RBNS enrichment (R)
Target: RNA binding protein fox-1 homolog 2, RRM domain, GST-SBP tag (RBFOX2, Homo sapiens, UniProt O43251-10, residues 100-194)
Setting: natural RNA segment, single round, ends assumed
Residues (chain): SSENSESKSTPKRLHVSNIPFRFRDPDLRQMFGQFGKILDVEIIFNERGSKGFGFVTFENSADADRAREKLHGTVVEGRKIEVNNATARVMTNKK
Strand = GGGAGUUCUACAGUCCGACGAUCAACAGGAUCUGUCCCUACCCAGCACAGCAAAUGGUUGUAGUAAUUGCCAAAGCCCUCAUAAAGCCCUCCGGCUUGAGGAGAGAGUGUAUAGUCAUGGGUUCUGCCUCUGUUGGAAUUCUCGGGUGCCAA; result = 0.275
Strand = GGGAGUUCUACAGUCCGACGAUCGGCUCGGCGUGGAUGGCAGCCUCAGGACACACACCCCUGCCUCAAGGUGCUGAGCCCCCGCCUUGCACUGCGCCUGCCCCACGGUGUCCCCGCCGGGAAGCAGCCCCGGCUGGAAUUCUCGGGUGCCAA; result = 0.92
Strand = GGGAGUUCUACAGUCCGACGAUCGUGGCUGCUGCUGGCCUCCCUGCAAGUCCCCUCUUCUUCCUGUUGCGUGCCUGGACUCAGGAGCAUAGAAAAGACAAUUGUGGAUUGGGCCACACUGGCCUAGCCUGAACUGGAAUUCUCGGGUGCCAA; result = 1.51
Strand = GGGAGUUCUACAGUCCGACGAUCAAAUGGCAACAAACUGCACAUGAUUUCACAAAUAUUAAAAAGUCUUUUAAAAAGUAUUGCCAAACAUUAAUGUUGAUUUCUAGUUAUUUAUUCUGGGAAUGUAUAGUAUUUGGAAUUCUCGGGUGCCAA; result = 0.867
Strand = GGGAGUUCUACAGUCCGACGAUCAGUCUACUAGAGAGGUGCUGCCUUUUCUAAGUCAUAAUGAGGAACAGUCCCUUAAUUUCUUGUGUGCAACUCUGUUUUAUCCUAGAACUAAGAGAGCAUUGGUUUGUUAAUGGAAUUCUCGGGUGCCAA; result = 0.379
Strand = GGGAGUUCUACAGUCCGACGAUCCAGGCAGUCAUGGGCCCUGAGGCCCCUCCUGCCUGGCCCUGCUCCCCAGUGGGGAGGUGACUGUGUUUCCCAGAGUGUGAGCCGCUCUCCUCCCCCUAAAAAGCUGACUCUGGAAUUCUCGGGUGCCAA; result = 0.314
Strand = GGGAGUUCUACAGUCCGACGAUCAACCAGCUAGUUAGAAAACCAUUUAUUUUUCUUUCUUCUUUCCCCACUUGUUAGAGGUAGGGCUAUGAGGAAGCAAGGAUGGGAGGUGGGGUUGAGGUUUGGGAAGCAGGUGGAAUUCUCGGGUGCCAA; result = 1.29
Strand = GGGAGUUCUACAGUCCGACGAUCCUGAGGAUUUCUUUUUGGUUUGCCUUUUAUGUAAAUUUUUUACGUAGCUAUUUUUAUACACUGUAAGCUUUGUUCUGGGAGUUGCUGUUAAUCUGAUGUAUAAUGUAAUGUGGAAUUCUCGGGUGCCAA; result = 1.29

Some of these lines once more (series 2):
Strand = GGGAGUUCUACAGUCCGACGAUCGAGGAAACAGACUACACUCCCGUUUGGUGCAUGCGCCAGGCAGGCCGUUACUUACCAGAGUUUAGGGAAACCCGGGCUGCCCAGGACUUUUUCAGCACGUGUCGCUCUCCUGAGGCCUGCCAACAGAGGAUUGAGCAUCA; result = 0.0892 ratio
Strand = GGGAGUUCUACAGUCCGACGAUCAGCAAAAAGAACAAUAUAUUUGCUCAGUUCAGGAAGAAUGAUCGAGACAAACAGAAGUUGAUAGAGACAGUCGUGAAACAGCUGAGAAGUUUGGUGAAUGGUAUGUCCCAGCACAUGUAGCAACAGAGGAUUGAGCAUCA; result = 0.319 ratio
Strand = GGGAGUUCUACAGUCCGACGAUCAAGCUGUAGGCUUUCUUCAGCCUUGCUCUUCCCAGCUCUGGAGAGUCCCUCCCUGACCUGGUGGUUAUAAUACAGCAGGCGGCCUUGGUUAAUGUUUACCUUUUCAUUGUGUUUUUGAAACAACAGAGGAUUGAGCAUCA; result = 0.0841 ratio
Strand = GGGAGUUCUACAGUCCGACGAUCAUGUCCUUUCCUGUGGAUAGUGUUGACAUAGGAUUCAGGAAUCAGGUUGAUGACAUCCGUAGCUUUUUGGAUUCCAGACAUCUUGACCACUACACAGUAUACAACUUGUCACCCAAGUCUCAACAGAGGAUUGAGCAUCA; result = 0.192 ratio
Strand = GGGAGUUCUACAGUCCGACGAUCGGGAACCAGGUUCUGUGAGGCAUUCUACCUCACCAGCAAGCUCAGAAUACUCUUGGAAGUCAGUUGAGAAAUACAAAAAAUACGCUCACUCUGGAUCACGUGAUUUCAGUAGACAUGAGCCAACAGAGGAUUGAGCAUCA; result = 0.225 ratio
Strand = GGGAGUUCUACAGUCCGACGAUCGCAAAGCAAAUUUAUGAAGAAUUCAUUCAAACGGAGGCUCCUAAAGAGGUGAAUAUUGACCACUUCACUAAGGACAUCACAAUGAAGAACCUGGUGGAACCUUCCCUGAGCAGCUUUGACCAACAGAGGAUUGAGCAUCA; result = 0.191 ratio
Strand = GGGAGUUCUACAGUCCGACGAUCGAGUAGCCUAAGUCUGGCUGUUCCUCCACCAAGAUUUCAUGACUCCAGCAGUCCGUUGCUAACCAGUGGGCCCUCAGUUGCUGAGCUCCCGUGGGCUGUAAAGUCUGAAGAUAAAGCCAACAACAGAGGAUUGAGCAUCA; result = 0.212 ratio
Strand = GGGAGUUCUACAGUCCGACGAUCUUGAAACAGUCAACUCGGAAAUUAACUAUAAGACUUGUUCUAUUUAUAAGUAUUUAUUUCUAAUGCCUCCACAUAGCCCUGUAAUAUUCAGAUGGAACCCCCAACCACCUCCACCCUGUUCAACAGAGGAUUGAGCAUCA; result = 0.869 ratio
